Experimental data of several laboratories.
Protocols differ between the studies behind these lines.
Target: Interleukin-1 receptor-associated kinase 4 (IRAK4, Homo sapiens, UniProt Q9NWZ3)

| SMILES | test | conditions | scale | quantity | result |
| --- | --- | --- | --- | --- | --- |
| CC(C)=CC1OC(C)(C)C2C=C3C(=O)C(Cl)=CC(O)C3C3C(O)C4OC4C(=O)C132 (centres unmarked) | cell-free assay, competition with immobilised ligand | 10 µM | – | remaining binding | 83% |
| CN1CC[C@@H](COc2cnc(C#N)cc2-c2ccn3nc(NC(=O)C4CC4)cc3c2)C1 | enzyme activity, inhibitor | 1 µM | – | inhibition | 8% |
| Fc1cncc(-c2ccc3[nH]c4ncnc(N[C@H]5CC[C@H](N6CCOCC6)CC5)c4c3c2)c1 | enzyme activity, AlphaScreen | 1 µM, together with: ATP 25 µM | – | inhibition | 100% |
| O=C(O)CCC(=O)c1cccc(NS(=O)(=O)c2c[nH]c3ncccc23)c1 | kinase activity, radiometric | 10 µM | – | remaining activity | 97% |
| C=CC(=O)Nc1cccc(-c2cnc3[nH]cc(C(=O)NC(C)(C)C)c3n2)c1 | enzyme activity, inhibitor | 0.1 µM | – | inhibition | -3% |
| COc1cc(Nc2nc(C)cc(-c3cnn4nc(OC)ccc34)n2)cc(C(F)(F)F)c1 | inhibitor | 1 µM | reference: control | remaining activity | 87% |
| CCn1cc(C(=O)O)c(=O)c2c(N)c(F)c(NC3CCCCC3)cc21 | kinase activity | 0.1 µM, together with: ATP at Km | – | inhibition | -12.4% |
| CN1CCN(Cc2ccc(-c3ccc(CO[C@H]4CCC[C@@H]4NC(=O)c4cc(-c5cnn(C)c5)cnc4N)cc3)cc2)CC1 | enzyme activity, inhibitor | 0.1 µM | – | inhibition | -9% |
| Cc1cccc(O[C@H]2CCC[C@@H](C(C)CNCc3ccncc3)C2)c1 (relative stereo) | kinase activity, kinome panel screening | 10 µM | – | inhibition | -5% |
| COc1c(OCCCN2CCOCC2)ccc2c1N=C(NC(=O)c1cnc(N)nc1)N1CCN=C21 | kinase activity, inhibitor | 1 µM | reference: untreated control | remaining activity | 100% |
| COc1c(Cl)cccc1Nc1c(-c2ccncc2C#C[C@@]2(C)CCCN2C(=O)/C=C/CN(C)C)[nH]c2c1C(=O)NCC2 | binding, competition with immobilised ligand | 3 µM | – | remaining binding | 99% |
| CNC(=O)C[C@H](Cc1ccc(C#N)cc1)NC(=O)c1cc(-c2ccc(CN[C@H](C)c3ccc(C)cc3)o2)ccc1Cl | enzyme activity, inhibitor | 1 µM | – | activity vs control | 97% |
| NC(=O)C[C@H]1CCc2sc3ncnc(O[C@H]4CC[C@H](N5CCOCC5)CC4)c3c21 | enzyme activity, inhibitor | 10 µM | – | inhibition | 99% |
| C=CC(=O)N1Cc2nc(-c3cc(-c4cc(Cl)cnc4Cl)c(F)cc3F)n(-c3ccncn3)c2C1 | cell-free assay, inhibitor | 1 µM | – | inhibition | 1.7% |
| C=CC(=O)N1CCCC(n2c(=O)c3ncccc3n(Cc3ccc(Oc4ccccc4)cc3)c2=O)C1 (centres unmarked) | cell-free assay, competition with immobilised ligand | 1 µM | – | remaining binding | 75% |
| CNC1C[S+]2CC[S+]3CC[S+](C1)[Ru-4]321([N]=C=S)[n]2c3ccc(OC)cc3c3c4c(c5cc(F)c[n+]1c5c32)C(=O)NC4=O (centres unmarked) | KinomeScan | 0.1 µM | reference: untreated | remaining binding | 85% |
| Cc1cnc2nc1Nc1cccc(c1)COC/C=C/COCc1cc(ccc1OCCN1CCOCC1)N2 | – | concentration not given | – | percent of control | 81% |
| COc1cncc(-c2ccc3[nH]c4ncnc(N[C@H]5CC[C@H](N6CCOCC6)CC5)c4c3c2)c1 | enzyme activity, AlphaScreen | 1 µM, together with: ATP 25 µM | – | inhibition | 100% |
| COc1ccc(O)cc1-c1c[nH]c2ncc(-c3cncc(C(=O)N(C)C)c3)cc12 | binding, competition with immobilised ligand | 0.2 µM | – | inhibition | -10% |
| Cc1nc2c(F)cc(-c3nc(Nc4ccc(CNC(=O)CCCCCCC(=O)NO)cc4)ncc3F)cc2n1C(C)C | enzyme activity, inhibitor | 1 µM | – | inhibition | 78% |
